Measured values of several laboratories.
Numbered parts are unrelated; each lists some results of a single study. Changes are numbered by the printed parent chain.
UniProt P07949, sequence (whole entry, unmodified, looked up): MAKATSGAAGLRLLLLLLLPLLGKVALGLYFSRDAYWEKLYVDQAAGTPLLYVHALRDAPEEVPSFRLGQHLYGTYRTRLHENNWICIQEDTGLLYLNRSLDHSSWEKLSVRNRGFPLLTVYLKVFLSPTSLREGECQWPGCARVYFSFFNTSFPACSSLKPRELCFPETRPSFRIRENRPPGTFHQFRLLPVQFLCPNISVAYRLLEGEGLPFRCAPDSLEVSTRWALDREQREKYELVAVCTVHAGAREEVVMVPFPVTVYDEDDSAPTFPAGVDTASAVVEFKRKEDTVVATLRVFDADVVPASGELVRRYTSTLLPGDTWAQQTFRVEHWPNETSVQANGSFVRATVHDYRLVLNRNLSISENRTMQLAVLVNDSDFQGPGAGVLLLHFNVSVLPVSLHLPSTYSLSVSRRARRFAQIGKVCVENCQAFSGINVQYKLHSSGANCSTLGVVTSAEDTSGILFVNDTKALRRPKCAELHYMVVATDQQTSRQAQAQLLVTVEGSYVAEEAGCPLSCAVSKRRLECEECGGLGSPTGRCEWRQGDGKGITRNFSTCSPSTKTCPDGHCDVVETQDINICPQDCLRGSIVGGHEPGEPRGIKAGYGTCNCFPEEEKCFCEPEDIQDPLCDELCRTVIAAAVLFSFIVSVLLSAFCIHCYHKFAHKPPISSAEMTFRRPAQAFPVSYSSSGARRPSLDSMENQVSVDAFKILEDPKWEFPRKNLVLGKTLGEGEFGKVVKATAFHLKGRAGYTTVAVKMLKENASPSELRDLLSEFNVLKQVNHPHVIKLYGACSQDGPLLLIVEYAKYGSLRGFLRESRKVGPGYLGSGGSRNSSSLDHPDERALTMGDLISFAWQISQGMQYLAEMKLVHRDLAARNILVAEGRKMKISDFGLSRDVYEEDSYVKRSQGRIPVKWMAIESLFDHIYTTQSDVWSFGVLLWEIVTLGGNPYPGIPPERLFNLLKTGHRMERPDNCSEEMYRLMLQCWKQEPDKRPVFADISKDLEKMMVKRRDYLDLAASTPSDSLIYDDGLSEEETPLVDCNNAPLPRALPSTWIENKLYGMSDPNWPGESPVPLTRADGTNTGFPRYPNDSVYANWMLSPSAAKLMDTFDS
UniProt Q9UBE8, sequence (whole entry, looked up): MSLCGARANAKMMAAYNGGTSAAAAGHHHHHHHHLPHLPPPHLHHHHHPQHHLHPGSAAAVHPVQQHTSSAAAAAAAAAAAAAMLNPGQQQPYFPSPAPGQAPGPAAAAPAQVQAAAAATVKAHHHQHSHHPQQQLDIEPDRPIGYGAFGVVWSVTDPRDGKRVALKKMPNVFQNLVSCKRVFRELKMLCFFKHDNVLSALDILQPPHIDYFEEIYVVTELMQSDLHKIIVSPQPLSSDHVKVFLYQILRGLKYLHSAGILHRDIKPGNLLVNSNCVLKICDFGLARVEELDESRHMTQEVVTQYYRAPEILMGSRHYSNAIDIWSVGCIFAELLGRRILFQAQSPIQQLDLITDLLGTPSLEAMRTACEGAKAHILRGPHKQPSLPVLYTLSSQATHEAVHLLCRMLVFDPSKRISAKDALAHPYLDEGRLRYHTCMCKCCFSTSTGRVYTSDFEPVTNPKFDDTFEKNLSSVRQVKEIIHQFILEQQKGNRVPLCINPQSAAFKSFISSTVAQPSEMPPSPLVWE
UniProt Q8TDX7, sequence (whole entry, looked up): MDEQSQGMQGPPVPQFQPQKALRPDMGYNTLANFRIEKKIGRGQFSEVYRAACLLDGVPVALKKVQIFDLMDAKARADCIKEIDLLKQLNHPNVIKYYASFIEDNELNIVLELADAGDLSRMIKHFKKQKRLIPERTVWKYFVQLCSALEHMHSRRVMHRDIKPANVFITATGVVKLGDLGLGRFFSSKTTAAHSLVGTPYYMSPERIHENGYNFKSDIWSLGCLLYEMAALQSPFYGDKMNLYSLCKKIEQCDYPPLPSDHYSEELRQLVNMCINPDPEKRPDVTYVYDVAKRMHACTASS
UniProt Q8WXR4, sequence (whole entry, looked up): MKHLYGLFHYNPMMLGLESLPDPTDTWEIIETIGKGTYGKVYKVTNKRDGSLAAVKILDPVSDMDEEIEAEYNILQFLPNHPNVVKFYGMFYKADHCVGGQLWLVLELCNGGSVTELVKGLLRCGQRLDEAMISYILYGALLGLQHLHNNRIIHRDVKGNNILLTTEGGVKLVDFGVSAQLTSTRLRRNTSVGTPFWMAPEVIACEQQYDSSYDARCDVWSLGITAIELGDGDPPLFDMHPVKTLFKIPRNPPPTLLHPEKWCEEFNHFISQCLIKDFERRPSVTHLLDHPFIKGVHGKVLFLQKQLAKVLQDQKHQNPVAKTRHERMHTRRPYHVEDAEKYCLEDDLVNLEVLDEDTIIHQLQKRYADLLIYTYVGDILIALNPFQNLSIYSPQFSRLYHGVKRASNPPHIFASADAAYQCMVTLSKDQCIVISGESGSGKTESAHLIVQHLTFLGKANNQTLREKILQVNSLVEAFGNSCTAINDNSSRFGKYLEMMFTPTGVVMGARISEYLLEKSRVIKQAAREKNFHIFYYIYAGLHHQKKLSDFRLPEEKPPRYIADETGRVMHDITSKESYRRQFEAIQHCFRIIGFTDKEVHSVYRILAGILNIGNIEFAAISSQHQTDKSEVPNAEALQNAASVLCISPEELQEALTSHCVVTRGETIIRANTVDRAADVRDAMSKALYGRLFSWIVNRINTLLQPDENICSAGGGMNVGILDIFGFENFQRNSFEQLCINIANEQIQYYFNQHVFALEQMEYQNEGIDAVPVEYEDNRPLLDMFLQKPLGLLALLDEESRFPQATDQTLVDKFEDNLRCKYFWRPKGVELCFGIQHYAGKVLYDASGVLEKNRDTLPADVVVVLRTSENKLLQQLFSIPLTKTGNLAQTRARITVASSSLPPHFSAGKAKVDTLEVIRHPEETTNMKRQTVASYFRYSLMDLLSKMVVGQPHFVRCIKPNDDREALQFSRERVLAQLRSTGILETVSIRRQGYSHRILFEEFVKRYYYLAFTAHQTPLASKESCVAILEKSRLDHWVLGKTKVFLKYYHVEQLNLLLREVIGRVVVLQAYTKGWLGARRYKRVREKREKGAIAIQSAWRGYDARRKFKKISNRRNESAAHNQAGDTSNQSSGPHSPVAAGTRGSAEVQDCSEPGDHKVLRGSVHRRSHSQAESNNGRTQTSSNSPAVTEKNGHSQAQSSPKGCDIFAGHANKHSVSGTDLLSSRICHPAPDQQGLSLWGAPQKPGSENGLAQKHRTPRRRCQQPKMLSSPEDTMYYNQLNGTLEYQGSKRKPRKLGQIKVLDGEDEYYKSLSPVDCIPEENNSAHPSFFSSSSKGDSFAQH
UniProt P57078, sequence (whole entry, looked up): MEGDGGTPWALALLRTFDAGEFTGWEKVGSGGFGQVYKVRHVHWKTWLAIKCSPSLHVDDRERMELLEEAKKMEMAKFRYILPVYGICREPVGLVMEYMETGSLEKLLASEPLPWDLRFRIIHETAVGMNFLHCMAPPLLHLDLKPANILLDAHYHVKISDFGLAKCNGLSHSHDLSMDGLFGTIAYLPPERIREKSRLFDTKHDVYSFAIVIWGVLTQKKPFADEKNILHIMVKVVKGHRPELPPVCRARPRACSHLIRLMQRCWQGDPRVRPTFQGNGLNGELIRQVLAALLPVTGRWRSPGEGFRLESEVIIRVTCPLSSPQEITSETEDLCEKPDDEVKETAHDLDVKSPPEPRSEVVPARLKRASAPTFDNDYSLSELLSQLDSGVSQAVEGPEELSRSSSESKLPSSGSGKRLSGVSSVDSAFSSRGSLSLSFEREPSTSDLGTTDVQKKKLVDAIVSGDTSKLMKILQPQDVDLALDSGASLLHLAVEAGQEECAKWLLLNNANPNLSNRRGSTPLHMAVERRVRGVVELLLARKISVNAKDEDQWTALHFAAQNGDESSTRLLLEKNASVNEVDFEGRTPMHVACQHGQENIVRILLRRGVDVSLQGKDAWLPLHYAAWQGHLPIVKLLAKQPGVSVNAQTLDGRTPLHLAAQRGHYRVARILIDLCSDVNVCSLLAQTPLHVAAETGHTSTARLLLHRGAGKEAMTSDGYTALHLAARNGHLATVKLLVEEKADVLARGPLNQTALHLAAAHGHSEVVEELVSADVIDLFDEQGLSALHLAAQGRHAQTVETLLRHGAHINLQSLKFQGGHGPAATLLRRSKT
UniProt Q16566, sequence (whole entry, looked up): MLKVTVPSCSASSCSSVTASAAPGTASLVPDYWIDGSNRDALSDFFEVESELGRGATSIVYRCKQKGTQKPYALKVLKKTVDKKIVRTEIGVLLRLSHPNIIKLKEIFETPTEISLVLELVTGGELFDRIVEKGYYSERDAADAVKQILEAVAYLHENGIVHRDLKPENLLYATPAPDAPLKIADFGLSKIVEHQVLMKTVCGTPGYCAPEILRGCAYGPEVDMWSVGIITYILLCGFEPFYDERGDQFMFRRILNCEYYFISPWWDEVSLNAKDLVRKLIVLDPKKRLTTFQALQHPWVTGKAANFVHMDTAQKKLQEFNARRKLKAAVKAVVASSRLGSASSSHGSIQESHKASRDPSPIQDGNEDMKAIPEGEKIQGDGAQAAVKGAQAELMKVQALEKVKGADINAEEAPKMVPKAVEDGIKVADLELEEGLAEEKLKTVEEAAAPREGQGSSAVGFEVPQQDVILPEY

Study 1
Target: RNA binding protein fox-1 homolog 2, RRM domain, GST-SBP tag (RBFOX2, Homo sapiens, UniProt O43251-10, residues 100-194)
Method: RNA Bind-n-Seq
Molecule type: RNA
Medium: in vitro
Tested at: 365 nM
Setting: natural RNA segment, single round, ends assumed
Baseline: no-protein control
Reading: higher = stronger binding
Residues (chain): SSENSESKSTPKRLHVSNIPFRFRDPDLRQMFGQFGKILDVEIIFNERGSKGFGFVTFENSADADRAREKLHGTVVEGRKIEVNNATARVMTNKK
| Sequence | RBNS enrichment (R) |
| --- | --- |
| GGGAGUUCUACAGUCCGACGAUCACACAGAGCAGACAAGAAAGAAGAGCCCUUGAAAACAAGGGAAUGAUUUUUGAGUCGUUAUCAAGCUAAGUGGCAAGCGGGAAGCUGAAACUCGUAUAGGUGAACAUUCUUGGAAUUCUCGGGUGCCAA | 0.27 |
| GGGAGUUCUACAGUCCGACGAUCCCACAGGAUUGAAGACUGCUUGGCAGUCCUCCCAAUCCCACACCUCCUGUUUGCCAGGGGAAAGAACCUAAAGACUUCGUGUGAUUGGGAGGGGUGGCAGACAGGAAGAAUGGAAUUCUCGGGUGCCAA | 0.346 |
| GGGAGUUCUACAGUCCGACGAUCGCAGCAGGGAGCAAAAUCUCCUUUAACAACCAAGCAGUUCCUCAUUCACAUCAACAGAGCGAGGCUGUGAUAACUUAGGAGGCAGCAAUCCUAAUAGUCCUUCAGUGCAUUGGAAUUCUCGGGUGCCAA | 0.522 |
| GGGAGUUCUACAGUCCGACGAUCUUAAUAAUAAUUAUUAUUAUUAUUUUCCUUCCAUGCUCCCAACUCCCUUCUGCUUGUCCCAAAUCCGCCAGUGUUUCUGAAUGUUUGUGUCUGUGGUUGCAGUCUUUCCCUGGAAUUCUCGGGUGCCAA | 1.26 |
| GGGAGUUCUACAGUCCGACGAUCCUCCCCUGCCCCGCGGGUCUCUGGAUUGGGACGCACAGUGCAGUUGAGGUCUGCGUCGGGCUUGGCUUUUCACAAAGGCUGAUGUCUUAACUGUCACCCAUAUGGUCCCUUGGAAUUCUCGGGUGCCAA | 0.171 |
| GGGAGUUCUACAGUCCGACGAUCAAUGCUUCUAUUUAAAGGGGAAAUAUUUCUACAUGUGCAUAUAGUUUUCCAAGAGUGUACCAUUAACUUGAUUGUUGAUAAUAAAAAGAAAAAGCAAGUCUAAGCAAGUAUGGAAUUCUCGGGUGCCAA | 0.672 |
| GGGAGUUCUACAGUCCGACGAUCAAUUCUCUUGCAAGUUAUGAAAAUAAAGUAUAUAAAAGGAUCCUGUGCUAUUGUGUGCGUGGUUGCUGAGACAAAAACUGGGACAAAGCAACUUACAGAGGGUAUUUUAGUGGAAUUCUCGGGUGCCAA | 1.37 |
| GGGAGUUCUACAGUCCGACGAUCCAUGGGCCCAGCCCCAAAGGGCAGUGAAUGGCCUUCUCUGAAACCCUGCGUCAAGCAGUGGGAGAGGGCAGUGCCCGGUGCCCUGGUGCUCCCAGCUGCCCUCCUGCUUCUGGAAUUCUCGGGUGCCAA | 0.207 |

Study 2
Target: CCNB2, cyclin fold, Cln2 fusion (human)
Method: yeast growth competition, sequencing
Medium: yeast
Setting: weak parent motif
Baseline: not given
Reading: higher = stronger binding
Parent: WEE1 docking peptide (human); HKTFRKLRLFDTP; partner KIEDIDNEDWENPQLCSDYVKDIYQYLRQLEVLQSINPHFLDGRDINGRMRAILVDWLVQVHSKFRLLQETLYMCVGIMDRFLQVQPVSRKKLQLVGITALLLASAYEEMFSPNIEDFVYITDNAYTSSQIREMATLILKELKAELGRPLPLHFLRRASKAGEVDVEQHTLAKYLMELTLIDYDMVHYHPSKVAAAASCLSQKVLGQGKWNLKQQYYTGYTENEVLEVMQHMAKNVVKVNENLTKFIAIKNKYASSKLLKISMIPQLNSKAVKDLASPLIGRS
| Substitution | normalised enrichment score |
| --- | --- |
| K6W | 0.359 |
| L9S | 1.08 |
| K6N | 0.582 |
| H1Q | 1.04 |
| T3V | 0.697 |
| P13T | 0.916 |
| R8I | 0.774 |
| F10I | 1.21 |

Study 3
Structure (SMILES): Cc1nc(Cc2cccc(C(F)(F)F)c2)sc1-c1ccc(C(N)=O)nc1
Method: competition with immobilised ligand
Tested at: 1 µM
| target | read-out | remaining binding [%] |
| --- | --- | --- |
| Cyclin-G-associated kinase (GAK, Homo sapiens, UniProt O14976) | cell-free assay | 91 |
| Epidermal growth factor receptor (EGFR, Homo sapiens, UniProt P00533, A750P/del747-749) | cell-free assay | 100 |
| Serine/threonine-protein kinase VRK2 (VRK2, Homo sapiens, UniProt Q86Y07) | cell-free assay | 100 |
| Phosphatidylinositol 5-phosphate 4-kinase type-2 beta (PIP4K2B, Homo sapiens, UniProt P78356) | cell-free assay | 88 |
| Serine/threonine-protein kinase NLK (NLK, Homo sapiens, UniProt Q9UBE8) | binding | 100 |
| Receptor-type tyrosine-protein kinase FLT3 (FLT3, Homo sapiens, UniProt P36888, D835Y) | cell-free assay | 92 |
| Receptor-type tyrosine-protein kinase FLT3 (FLT3, Homo sapiens, UniProt P36888) | cell-free assay | 87 |
| Serine/threonine-protein kinase DCLK2 (DCLK2, Homo sapiens, UniProt Q8N568) | cell-free assay | 100 |
| Serine/threonine-protein kinase Nek4 (NEK4, Homo sapiens, UniProt P51957) | cell-free assay | 100 |
| Tyrosine-protein kinase ABL1, phosphorylated (ABL1, Homo sapiens, UniProt P00519, Y253F) | cell-free assay | 88 |
| Proto-oncogene tyrosine-protein kinase receptor Ret (RET, Homo sapiens, UniProt P07949, M918T) | cell-free assay | 95 |
| Receptor tyrosine-protein kinase erbB-4 (ERBB4, Homo sapiens, UniProt Q15303) | cell-free assay | 74 |
| Receptor-interacting serine/threonine-protein kinase 4 (RIPK4, Homo sapiens, UniProt P57078) | cell-free assay | 83 |
| Mast/stem cell growth factor receptor Kit (KIT, Homo sapiens, UniProt P10721, D816H) | cell-free assay | 100 |
| Receptor-type tyrosine-protein kinase FLT3 (FLT3, Homo sapiens, UniProt P36888, K663Q) | cell-free assay | 88 |
| Serine/threonine-protein kinase Nek7 (NEK7, Homo sapiens, UniProt Q8TDX7) | cell-free assay | 98 |
| Calcium/calmodulin-dependent protein kinase type IV (CAMK4, Homo sapiens, UniProt Q16566) | cell-free assay | 100 |
| Myosin-IIIb (MYO3B, Homo sapiens, UniProt Q8WXR4) | binding | 100 |

Study 4
Species: human
Medium: microsomes or S9
Tested at: 2 µM
Time: 0.5 h
| SMILES | remaining compound |
| --- | --- |
| CC(C)(C)OC(=O)N1CCN(Cc2nc(-c3ccco3)n[nH]2)CC1 | 85% |
| NC(=O)CN1C(=O)/C(=c2\sc3nc(=O)c(-c4ccccc4)nn3c2=O)c2ccccc21 | > 99% |
| COC(=O)c1ccc2nc(Nc3nc4ccc(F)cc4s3)sc2c1 | 2.95% |

Mixed results
Nfkb1 Rel homology region: Nuclear factor NF-kappa-B p105 subunit, Rel homology region (Nfkb1, Mus musculus, UniProt P25799, residues 1-429)
UniProt P25799, sequence (1-429, looked up): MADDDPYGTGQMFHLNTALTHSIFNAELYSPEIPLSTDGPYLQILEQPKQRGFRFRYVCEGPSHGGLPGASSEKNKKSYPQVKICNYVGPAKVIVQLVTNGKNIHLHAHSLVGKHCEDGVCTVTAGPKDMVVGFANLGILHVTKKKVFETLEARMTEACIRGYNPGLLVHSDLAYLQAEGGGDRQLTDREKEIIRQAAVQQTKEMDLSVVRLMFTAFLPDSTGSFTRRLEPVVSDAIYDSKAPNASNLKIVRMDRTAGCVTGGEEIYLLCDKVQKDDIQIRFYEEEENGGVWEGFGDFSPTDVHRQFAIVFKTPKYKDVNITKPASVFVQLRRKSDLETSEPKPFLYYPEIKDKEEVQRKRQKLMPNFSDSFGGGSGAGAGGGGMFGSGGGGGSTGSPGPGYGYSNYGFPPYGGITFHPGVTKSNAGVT
| Molecule | tested on | assay | system | setting | scale | measurement | value |
| --- | --- | --- | --- | --- | --- | --- | --- |
| GGAATTTCTT | Nfkb1 Rel homology region | surface plasmon resonance | double-stranded DNA, one strand shown, in vitro | 1 nM to 1 µM, 10-bp κB site, 1:1 kinetic fit, 10 °C | higher = slower dissociation | dissociation half-life | 6 s |
| CNNCc1ccc(C(=O)NC(C)C)cc1 | HaCaT |  |  | 100 µM, 36 h |  | viability | 98.2% |
| GGGGAATTTT | Nfkb1 Rel homology region | surface plasmon resonance | double-stranded DNA, one strand shown, in vitro | 1 nM to 1 µM, 10-bp κB site, 1:1 kinetic fit, 10 °C | higher = slower dissociation | dissociation half-life | 113 s |
| CCN(CC)C(=O)Nc1ccc(OCC(O)CNC(C)(C)C)c(C(C)=O)c1 (centres unmarked) | HaCaT |  |  | 100 µM, 36 h |  | viability | 91.5% |

For quick reference, copied from above (study 3):
| target | read-out | remaining binding [%] |
| --- | --- | --- |
| Epidermal growth factor receptor (EGFR, Homo sapiens, UniProt P00533, A750P/del747-749) | cell-free assay | 100 |
| Receptor-type tyrosine-protein kinase FLT3 (FLT3, Homo sapiens, UniProt P36888, K663Q) | cell-free assay | 88 |
| Receptor tyrosine-protein kinase erbB-4 (ERBB4, Homo sapiens, UniProt Q15303) | cell-free assay | 74 |
| Serine/threonine-protein kinase Nek7 (NEK7, Homo sapiens, UniProt Q8TDX7) | cell-free assay | 98 |
| Serine/threonine-protein kinase Nek4 (NEK4, Homo sapiens, UniProt P51957) | cell-free assay | 100 |
